Experimental data gathered from unrelated publications.
“And” joins repeats or separate records; there may be more than shown. Numbers after ± are the reported error.
lasR: Transcriptional activator protein LasR (lasR, Pseudomonas aeruginosa, UniProt P25084)
Oprm1: Mu-type opioid receptor (Oprm1, Rattus norvegicus, UniProt P33535)
Chain of UniProt P33535 (whole entry, looked up): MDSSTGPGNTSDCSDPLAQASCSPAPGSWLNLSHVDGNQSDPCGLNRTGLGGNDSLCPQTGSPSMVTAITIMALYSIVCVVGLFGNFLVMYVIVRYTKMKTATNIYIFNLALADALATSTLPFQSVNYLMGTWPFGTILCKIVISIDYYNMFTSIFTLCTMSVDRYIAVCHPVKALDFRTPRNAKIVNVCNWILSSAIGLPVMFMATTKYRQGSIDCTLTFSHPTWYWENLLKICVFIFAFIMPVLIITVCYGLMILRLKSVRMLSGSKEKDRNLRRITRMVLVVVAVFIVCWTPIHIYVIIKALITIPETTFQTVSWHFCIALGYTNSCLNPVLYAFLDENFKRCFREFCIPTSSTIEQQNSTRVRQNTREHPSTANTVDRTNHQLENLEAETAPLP
sdiA: Regulatory protein SdiA (sdiA, Escherichia coli, UniProt P07026)
Chain of UniProt P07026 (whole entry, looked up): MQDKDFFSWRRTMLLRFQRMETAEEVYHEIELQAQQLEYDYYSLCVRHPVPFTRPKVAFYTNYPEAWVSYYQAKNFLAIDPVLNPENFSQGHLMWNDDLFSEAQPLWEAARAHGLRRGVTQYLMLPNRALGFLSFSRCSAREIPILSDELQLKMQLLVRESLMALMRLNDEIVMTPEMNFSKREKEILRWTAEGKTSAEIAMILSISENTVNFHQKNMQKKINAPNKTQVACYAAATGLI
Dpp7: Dipeptidyl peptidase 2 (Dpp7, Mus musculus, UniProt Q9ET22)
Chain of UniProt Q9ET22 (whole entry, looked up): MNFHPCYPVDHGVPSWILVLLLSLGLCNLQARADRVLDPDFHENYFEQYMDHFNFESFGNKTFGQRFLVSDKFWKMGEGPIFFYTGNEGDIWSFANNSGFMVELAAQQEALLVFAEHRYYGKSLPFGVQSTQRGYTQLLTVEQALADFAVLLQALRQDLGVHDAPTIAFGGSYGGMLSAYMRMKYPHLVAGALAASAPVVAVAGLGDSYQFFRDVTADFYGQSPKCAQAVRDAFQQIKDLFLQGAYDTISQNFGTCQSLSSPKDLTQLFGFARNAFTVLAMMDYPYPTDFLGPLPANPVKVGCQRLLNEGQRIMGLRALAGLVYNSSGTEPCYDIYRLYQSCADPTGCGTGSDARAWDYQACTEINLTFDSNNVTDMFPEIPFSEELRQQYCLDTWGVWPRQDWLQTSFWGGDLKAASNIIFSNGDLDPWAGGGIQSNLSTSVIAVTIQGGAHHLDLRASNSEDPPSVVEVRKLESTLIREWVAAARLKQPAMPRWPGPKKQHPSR
Uncharacterized hydrolase SAUSA300_2518: Uncharacterized hydrolase SAUSA300_2518 (Staphylococcus aureus, UniProt Q2FDS6)
Chain of UniProt A5GZW8 (whole entry, looked up): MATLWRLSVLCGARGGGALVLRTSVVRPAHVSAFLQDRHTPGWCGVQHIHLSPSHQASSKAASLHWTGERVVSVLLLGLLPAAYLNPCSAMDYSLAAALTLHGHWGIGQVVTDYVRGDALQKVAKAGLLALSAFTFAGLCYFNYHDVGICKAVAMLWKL
Chain of UniProt Q007T0 (whole entry, looked up): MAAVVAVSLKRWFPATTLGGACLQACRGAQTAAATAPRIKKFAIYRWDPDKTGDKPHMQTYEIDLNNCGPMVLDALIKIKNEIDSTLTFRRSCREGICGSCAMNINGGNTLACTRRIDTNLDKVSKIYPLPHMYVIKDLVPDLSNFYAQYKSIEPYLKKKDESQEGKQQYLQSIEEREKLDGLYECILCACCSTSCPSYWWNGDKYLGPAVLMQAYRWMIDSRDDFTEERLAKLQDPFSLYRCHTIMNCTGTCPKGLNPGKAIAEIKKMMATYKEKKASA
Chain of UniProt D0VWV4 (whole entry, looked up): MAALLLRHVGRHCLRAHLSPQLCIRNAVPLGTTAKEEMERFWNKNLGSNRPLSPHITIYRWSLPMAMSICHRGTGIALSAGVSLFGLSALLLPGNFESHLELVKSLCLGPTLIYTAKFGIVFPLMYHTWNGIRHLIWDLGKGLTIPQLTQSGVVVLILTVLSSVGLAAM
Chain of UniProt Q6DWJ6 (whole entry, looked up): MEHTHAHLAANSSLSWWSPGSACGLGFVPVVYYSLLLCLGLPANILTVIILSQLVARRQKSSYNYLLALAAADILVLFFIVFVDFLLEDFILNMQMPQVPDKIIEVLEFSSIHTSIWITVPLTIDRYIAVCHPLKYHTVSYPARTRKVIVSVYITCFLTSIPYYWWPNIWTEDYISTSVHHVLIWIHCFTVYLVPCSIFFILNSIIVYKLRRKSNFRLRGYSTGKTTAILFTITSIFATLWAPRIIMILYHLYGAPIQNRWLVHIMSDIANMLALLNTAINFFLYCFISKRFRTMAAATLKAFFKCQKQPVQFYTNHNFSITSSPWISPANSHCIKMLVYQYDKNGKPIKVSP
Chain of UniProt P41743 (whole entry, looked up): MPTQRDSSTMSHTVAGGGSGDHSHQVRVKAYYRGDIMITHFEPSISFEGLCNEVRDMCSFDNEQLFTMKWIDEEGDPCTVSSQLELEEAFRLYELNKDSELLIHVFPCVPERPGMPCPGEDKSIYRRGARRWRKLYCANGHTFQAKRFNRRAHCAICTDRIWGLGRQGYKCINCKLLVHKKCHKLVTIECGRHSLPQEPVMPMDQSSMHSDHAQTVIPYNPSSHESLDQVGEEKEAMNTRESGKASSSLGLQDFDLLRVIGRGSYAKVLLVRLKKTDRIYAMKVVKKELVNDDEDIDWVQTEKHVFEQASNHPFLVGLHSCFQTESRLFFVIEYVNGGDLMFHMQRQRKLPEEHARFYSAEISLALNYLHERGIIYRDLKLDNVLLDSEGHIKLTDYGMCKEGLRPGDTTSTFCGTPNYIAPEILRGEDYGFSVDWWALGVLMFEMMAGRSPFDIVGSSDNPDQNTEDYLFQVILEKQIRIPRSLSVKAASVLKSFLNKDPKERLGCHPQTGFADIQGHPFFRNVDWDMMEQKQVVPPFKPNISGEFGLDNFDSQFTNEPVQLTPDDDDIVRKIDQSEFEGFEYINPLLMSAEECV
Chain of UniProt Q14145 (whole entry, looked up): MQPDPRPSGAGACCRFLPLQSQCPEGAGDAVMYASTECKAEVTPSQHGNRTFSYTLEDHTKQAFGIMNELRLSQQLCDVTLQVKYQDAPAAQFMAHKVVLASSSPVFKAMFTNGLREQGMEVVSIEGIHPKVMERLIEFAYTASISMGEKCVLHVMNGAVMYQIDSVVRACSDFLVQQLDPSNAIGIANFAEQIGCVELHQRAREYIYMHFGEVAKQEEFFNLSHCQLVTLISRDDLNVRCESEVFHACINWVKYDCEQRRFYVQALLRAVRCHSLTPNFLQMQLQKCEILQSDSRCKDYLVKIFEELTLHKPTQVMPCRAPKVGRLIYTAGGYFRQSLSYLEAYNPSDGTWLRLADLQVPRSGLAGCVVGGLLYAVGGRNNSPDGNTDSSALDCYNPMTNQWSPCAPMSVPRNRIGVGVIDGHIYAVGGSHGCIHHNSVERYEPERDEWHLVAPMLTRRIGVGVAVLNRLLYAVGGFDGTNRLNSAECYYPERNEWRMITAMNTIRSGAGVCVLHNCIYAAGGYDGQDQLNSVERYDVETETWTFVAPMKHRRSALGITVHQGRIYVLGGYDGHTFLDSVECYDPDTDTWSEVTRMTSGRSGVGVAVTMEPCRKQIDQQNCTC
Chain of UniProt Q9UM07 (whole entry, looked up): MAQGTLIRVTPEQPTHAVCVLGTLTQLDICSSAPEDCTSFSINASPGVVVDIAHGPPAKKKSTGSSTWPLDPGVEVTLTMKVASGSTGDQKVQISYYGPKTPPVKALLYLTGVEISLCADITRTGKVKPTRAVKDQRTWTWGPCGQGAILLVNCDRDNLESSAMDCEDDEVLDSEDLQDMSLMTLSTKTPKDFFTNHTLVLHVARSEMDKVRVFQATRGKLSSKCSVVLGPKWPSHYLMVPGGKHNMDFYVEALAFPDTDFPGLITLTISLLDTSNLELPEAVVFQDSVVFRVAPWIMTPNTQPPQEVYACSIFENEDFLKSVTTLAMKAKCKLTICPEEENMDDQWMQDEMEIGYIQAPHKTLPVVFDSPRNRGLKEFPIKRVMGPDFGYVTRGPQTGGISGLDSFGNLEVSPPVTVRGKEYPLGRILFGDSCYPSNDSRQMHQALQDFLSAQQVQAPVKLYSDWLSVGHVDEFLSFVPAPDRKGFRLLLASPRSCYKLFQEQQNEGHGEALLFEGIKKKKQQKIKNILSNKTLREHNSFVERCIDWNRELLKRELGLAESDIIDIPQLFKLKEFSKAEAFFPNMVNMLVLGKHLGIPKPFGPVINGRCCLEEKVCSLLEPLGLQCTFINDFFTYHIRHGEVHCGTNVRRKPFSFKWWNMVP
Chain of UniProt Q9UKT9 (whole entry, looked up): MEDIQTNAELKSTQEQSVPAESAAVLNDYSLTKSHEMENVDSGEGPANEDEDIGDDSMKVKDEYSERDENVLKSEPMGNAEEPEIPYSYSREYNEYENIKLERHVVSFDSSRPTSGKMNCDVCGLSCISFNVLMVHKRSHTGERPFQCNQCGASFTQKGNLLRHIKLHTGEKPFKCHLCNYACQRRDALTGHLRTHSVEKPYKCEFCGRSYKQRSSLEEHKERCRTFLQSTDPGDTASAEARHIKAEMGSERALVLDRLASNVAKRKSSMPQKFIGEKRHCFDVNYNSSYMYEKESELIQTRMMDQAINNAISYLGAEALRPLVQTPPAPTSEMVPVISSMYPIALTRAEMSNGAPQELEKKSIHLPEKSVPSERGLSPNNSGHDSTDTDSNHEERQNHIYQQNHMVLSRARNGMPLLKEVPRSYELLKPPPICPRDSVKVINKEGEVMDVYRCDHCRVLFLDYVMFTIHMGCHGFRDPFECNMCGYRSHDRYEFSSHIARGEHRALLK
Chain of UniProt P25774 (whole entry, looked up): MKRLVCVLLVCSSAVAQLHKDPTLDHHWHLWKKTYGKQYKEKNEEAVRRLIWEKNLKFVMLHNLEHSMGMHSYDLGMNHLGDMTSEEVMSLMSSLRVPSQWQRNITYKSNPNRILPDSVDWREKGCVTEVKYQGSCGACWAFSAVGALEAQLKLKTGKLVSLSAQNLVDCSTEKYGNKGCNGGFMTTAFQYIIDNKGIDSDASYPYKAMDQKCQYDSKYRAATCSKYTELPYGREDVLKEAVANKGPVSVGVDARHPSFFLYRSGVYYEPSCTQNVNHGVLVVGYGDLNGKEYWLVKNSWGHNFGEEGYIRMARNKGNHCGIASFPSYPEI

SMILES	tested on	test	test system	conditions	scale	measurement	result
CCN(N=Cc1cnc2ccc(Br)cn12)S(=O)(=O)c1cc([N+](=O)[O-])ccc1C	PIK3CA (Homo sapiens, UniProt P42336, K776A)	luminescence			relative to: mutant over wild type	IC50 fold change	8.8 and 9
Cc1nc2cccc(OCC(C)(C)C(=O)NC(C)C)c2c(N)c1C(=O)[O-].[Na+]	Salmonella typhimurium	Ames plate incorporation	TA1537	0.32 mg/plate, with: with rat liver S9		revertant colonies	14 ± 3 colonies/plate
CC[C@@H](C)[C@@H](NC(=O)[C@@H](CCC(N)=O)NC(=O)[C@H](NC(=O)[C@H]1CCCN1C(=O)[C@H](NC(=O)[C@@H](CO)NC(=O)[C@@H](Cc1ccccc1)NC(=O)[C@H]1CCCN1C(=O)[C@@H](CCC(N)=O)NC(=O)[C@H](N)CCSC)[C@H](C)CC)C(C)C)C(=O)N[C@@H](C(=O)N[C@H](CC(C)C)C(=O)N[C@H](CCC(N)=O)C(=O)NCC(=O)N[C@H](CO)C(=O)N[C@H](CCCNC(=N)N)C(=O)N[C@H](CCCNC(=N)N)C(=O)N[C@H](CCCNC(=N)N)C(=O)N[C@H](CCC(N)=O)C(=O)NCC(=O)N[C@H](CCCNC(=N)N)C(N)=O)[C@H](C)O	Kcnma1 (Mus musculus, UniProt Q08460)	ion current, blocker, inside-out patch clamp	Xenopus oocytes	+100 mV, with: 10 µM cytosolic Ca2+		Hill coefficient	0.78
Cc1ccc(NC(=O)CCc2cccc(NC3=CC(=O)N(C4CCC(=O)NC4=O)C3=O)c2)cc1Cl (stereo not drawn)	CRBN/Zinc finger protein Aiolos (Homo sapiens, UniProt Q96SW2+Q9UKT9)	degrader, quantitative proteomics, item: protein abundance	human regulatory T cells	1 µM, 4 h	relative to: DMSO	log2 fold change	-2.53
CN(C)CCCSC(=S)N1CCN(C(=O)/C=C/c2coc3ccccc3c2=O)CC1	Nucleoprotein (N, Tomato spotted wilt virus, UniProt P25999, R94A)	binding, microscale thermophoresis		125 µM	dose series	MST response	845 a.u.
O=C(CCc1ccc(C(F)(F)F)cc1)N[C@H]1CCOC1=O	lasR	plasI-LVAgfp reporter, agonist			relative to: pump-active over pump-mutant	EC50 ratio	16
CC(O)CN.O=C(O)C(Cl)Cl	Eclipta prostrata			15 mg/mL, 21 days, post-emergence, greenhouse		herbicidal inhibition	42%
O=C(Cc1ccc(Br)cc1)N[C@H]1CCOC1=O	lasR	reporter gene, agonist	Pseudomonas aeruginosa PAO-JP2	100 µM, plasI-LVAgfp reporter	relative to: OdDHL at same concentration	agonist activity	-1%
Cc1cc(-c2ccc3ccccc3c2)nnc1NCCN1CCN(C)CC1	ABCB1 (Homo sapiens, UniProt P08183)	transport		concentration not given		inhibition	negative
CCCC[C@H]1CNCCN1C[C@@H]1CCCN1C[C@H](CC1CCCCC1)N1CCN(CCC23CC4CC(CC(C4)C2)C3)[C@H](Cc2ccc(O)cc2)C1	Oprm1	radioligand binding	rat brain membranes	500 nM, pH 7.5, 25 °C, with: 0.87 nM [3H]DAMGO		remaining binding	101 ± 8.14%
CC(C)[C@@H]1NC(=O)[C@H](CCC(=O)O)NC(=O)CNC(=O)[C@H]([C@@H](C)O)NC(=O)[C@H](CCC(=O)O)NC(=O)[C@H](CCC(=O)O)NC(=O)[C@H](CC(=O)O)NC(=O)[C@H](C(C)C)NC(=O)[C@H]([C@@H](C)O)NC(=O)CNC(=O)[C@H](CC(=O)O)NC(=O)[C@H](CC(N)=O)NC(=O)[C@H](Cc2ccc(O)cc2)NC1=O	KEAP1 (Homo sapiens, UniProt Q14145)	Keap1-Nrf2 binding, inhibitor, competitive FP		6.25 µM, 30 min, with: Nrf2 peptide probe	lower = stronger inhibition	fluorescence polarization	0.115 a.u. and 0.101 a.u.
Nc1ccc(/C=C/C(=O)N2CCc3c(oc4c(-c5ccc(F)cc5)cc(-c5ccc(C(=O)N6CCC(F)(F)CC6)cn5)cc34)C2)cn1	FGFR2 (Homo sapiens, UniProt P21802)	binding, competition with immobilised ligand		1 µM		remaining binding	100%
CCCCCCCCCNC(=O)CC(=O)c1ccccc1	lasR	reporter gene, agonist	Escherichia coli JLD271	10 µM, pSC11 and pJN105L plasmids	relative to: OdDHL at same concentration	agonist activity	2%
CC(C)C[C@H](NC(=O)[C@H]1O[C@@H]1C(=O)O)C(=O)NCCCCN=C(N)N	Cathepsin S (CTSS, Homo sapiens, UniProt P25774)					Hill slope	-1.33
Oc1ccc(C[C@@H]2CN([C@H](Cc3ccc4ccccc4c3)CN3CCC[C@H]3CN3CCNC[C@@H]3Cc3ccc4ccccc4c3)CCN2CCc2ccc(Cl)c(Cl)c2)cc1	Oprm1	radioligand binding	rat brain membranes	500 nM, pH 7.5, 25 °C, with: 0.87 nM [3H]DAMGO		remaining binding	114 ± 14.1%
Cc1cc(C(=O)Nc2nc3cccc(C)c3n2[C@H]2CCCCN(C(=O)/C=C/CN(C)C)C2)ccn1	Trypanosoma brucei	cell growth, Alamar Blue	2T1 overexpressing Tb927.10.10870		relative to: parental 2T1	EC50 fold shift	1.19 fold and 0.53 fold
CCCCCCCCCC(=O)NC1CCSC1=O (stereo not drawn)	sdiA					Emax	113%
CCCC[C@H]1CNCCN1C[C@@H]1CCCN1C[C@H](CC1CCCCC1)N1CCN(CCC23CC4CC(CC(C4)C2)C3)[C@H]([C@H](C)CC)C1	Oprm1	radioligand binding	rat brain membranes	500 nM, pH 7.5, 25 °C, with: 0.87 nM [3H]DAMGO		remaining binding	107 ± 7.64%
CC(C)[C@H]1NC(=O)C[C@H]2/C=C/CCSSC[C@@H](NC1=O)C(=O)N[C@H](Cc1cccc3ccccc13)C(=O)NCC(=O)O2	STK4 (Homo sapiens, UniProt Q13043)	enzyme activity, inhibitor		10 µM		inhibition	-7.7%
N[C@H](C(=O)N1CCCC1)C1CCN(c2nccc3c(-c4ncc(Cl)cc4Cl)cccc23)CC1	PADI4 (Homo sapiens, UniProt Q9UM07)	thermal shift		30 µM		melting temperature	66.4 °C and 66.6 °C

SMILES	tested on	test	test system	conditions	scale	measurement	result
CC(C)CC(O)(CC(C)C)c1cn(C(=O)N2CCCC2)nn1	Dpp7	probe labelling, inhibitor, item: Dpp7	mouse, brain	i.p., 0.8 mg/kg, 4 h, protein level	relative to: treated over vehicle mice, lower = stronger inhibition	activity ratio-of-ratios	1.56
O=C(CCCOc1ccc(Cl)cc1)N[C@H]1CCOC1=O	lasR	reporter gene, agonist	Pseudomonas aeruginosa PAO-JP2	100 µM, plasI-LVAgfp reporter	relative to: OdDHL at same concentration	agonist activity	3%
CON(C(=O)c1cn(C)nc1C(F)F)C(C)Cc1c(Cl)cc(Cl)cc1Cl (stereo not drawn)	SDHD/SDHC/SDHB (Sus scrofa, UniProt A5GZW8+D0VWV4+Q007T0)	enzyme activity, inhibitor, DCIP reduction	pig	0.1 µM, with: DCIP 80 µM		reaction velocity	0.0172 µM/s and 0.0164 µM/s and 0.0162 µM/s
CC(C)(C)C(=O)OCOP(=O)(OCOC(=O)C(C)(C)C)C1CCCN(O)C1=O (stereo not drawn)	SK-MEL-5					TGI	1.58 µM
CS(C)(=O)=Nc1ccc(-c2ccc(-c3nc4cc(O[C@@H]5CO[C@H]6[C@@H]5OC[C@H]6O)[nH]c4cc3F)cc2)cc1	SRPK3 (Homo sapiens, UniProt Q9UPE1)	enzyme activity, inhibitor		10 µM		inhibition	-12%
C=CC(=O)NC[C@H](NC(=O)[C@H](CC1CCCCC1)NC(=O)[C@H](CCC(N)=O)NC(C)=O)C(=O)N[C@@H](CC(C)C)C(=O)N[C@@H](Cc1ccccc1)C(=O)O	Beta sliding clamp (Escherichia coli, UniProt P0A988)	binding, isothermal titration calorimetry		pH 7.4, 22 °C		ΔH	-11.5 kcal/mol
COc1cc2c(cc1S(=O)(=O)F)C(=O)NCCC2	Uncharacterized hydrolase SAUSA300_2518	enzyme activity, inhibitor, fluorogenic substrate		0.1 µM		remaining activity	92.5% and 93.2% and 92.6%
O=C1NC(=O)c2c1c1cc(F)c[n+]3c1c1c2c2cc(O)ccc2[n]1[Ru-4]312([N]=C=S)[S+]3CC[S+]1CC[S+]2CC3 (stereo not drawn)	INSRR (Homo sapiens, UniProt P14616)	enzyme activity		100 nM, human enzyme, with: 10 µM ATP	relative to: untreated	remaining activity	29%
COC(=O)[C@@H](NC(=O)c1nn(Cc2ccc(F)cc2)c2cc(OCCCCNC(=N)N)ccc12)C(C)(C)C	CNR1 (Homo sapiens, UniProt P21554)	G-protein signalling, agonist, cAMP	HEK293T cells, transfected			Emax	106%
N=C(N)NCCC[C@@H]1NC(=O)[C@H](CCCCNC(=O)CCC(NC(=S)Nc2ccc(CC3CN(CC(=O)O)CCN(CC(=O)O)CCN(CC(=O)O)CCN3CC(=O)O)cc2)C(=O)NCCCC[C@@H]2NC(=O)[C@@H](Cc3ccc(O)cc3)NC(=O)[C@H](CC(=O)O)NC(=O)CNC(=O)[C@H](CCCNC(=N)N)NC2=O)NC(=O)[C@@H](Cc2ccc(O)cc2)NC(=O)[C@H](CC(=O)O)NC(=O)CNC1=O (stereo partly drawn) [scandium-44 labelled]		ex vivo γ-counting	female athymic nude mice, U-87 MG xenograft, kidney	intravenous, 4 h, with: cRGD 50 mg/kg blocking		tissue uptake	1.29 ± 0.261 %ID/g
O=C1NC2(CC2)COc2ncc(F)cc2[C@H]2COCCN2c2ccn3ncc1c3n2			Sprague-Dawley rat, female, uterus	oral, 10 mg/kg/day, 4 weeks dosing, end of recovery		organ-to-brain weight ratio	24.2 ± 3.68%
CC[C@H](C)[C@H](NC(=O)[C@H](CCCNC(=N)N)NC(=O)[C@H](CCCNC(=N)N)NC(=O)[C@H](CC(C)C)NC(=O)[C@H](Cc1ccccc1)NC(=O)CNC(=O)CNC(=O)[C@@H](N)Cc1ccc(O)cc1)C(=O)N[C@@H](CCCNC(=N)N)C(=O)N1CCC[C@H]1C(=O)N[C@@H](CCCCN)C(=O)N[C@@H](CC(C)C)C(=O)N[C@@H](CCCCN)C(=O)O	GPR139 (Homo sapiens, UniProt Q6DWJ6)	Gαz activation, agonist, BRET	HEK293T/17	40 µM		Emax	8% and 9.23%
COCC1CCCCN1C(=O)n1cc(C(O)(c2ccccc2)c2ccccc2)nn1 (stereo not drawn)	Dpp7	probe labelling, inhibitor, competitive ABPP-SILAC, item: Dpp7	mouse T cells	concentration not given, 4 h, single peptide	relative to: treated over DMSO cells, lower = stronger inhibition	SILAC activity ratio	1.23 and 1.4 and 1.28 and 1.35
O=C(COc1ccc(I)cc1)N[C@H]1CCOC1=O	sdiA					Emax	106%
CN(C)[C@H]1C[C@@]23CC[C@@]4(O2)C(=CC[C@]2(C)[C@@H](c5ccc6ccncc6c5)CC[C@H]24)C=C3[C@@H](O)[C@@H]1O	IRAK3 (Homo sapiens, UniProt Q9Y616)	ATP probe labelling, inhibitor, KiNativ profiling		0.1 µM		inhibition	5.8%
[CH3][Ti+2][O]C(=O)c1ccc([S][Au][PH](c2ccccc2)(c2ccccc2)c2ccccc2)cc1.c1cc[cH-]c1.c1cc[cH-]c1	PRKCI (Homo sapiens, UniProt P41743)	kinase activity, HotSpot radiometric		1 µM, with: ATP 10 µM	relative to: vehicle	remaining activity	95% and 99.7%
CN1CCCN(C(=O)c2ccc(S(=O)(=O)F)cc2)c2ccccc21	Uncharacterized hydrolase SAUSA300_2518	enzyme activity, inhibitor, fluorogenic substrate		10 µM		remaining activity	103% and 111%
COc1ccccc1-c1n[nH]c2nc(N[C@H]3CC[C@H](NS(=O)(=O)CC(C)C)CC3)ncc12	cdc2-related kinase 12 (Leishmania donovani, UniProt A0A3S7WQK2)	kinobead competition pull-down	Leishmania donovani, cell extract	0.0032 µM, unit not given	relative to: vehicle	remaining binding	0.54
CC[C@H](C)[C@H](NC(=O)[C@H](CO)NC(=O)[C@H](Cc1ccc(O)cc1)NC(=O)[C@H](Cc1ccc(O)cc1)NC(=O)[C@H](CC(N)=O)NC(=O)CNC(=O)[C@H](CO)NC(=O)[C@H](Cc1ccc(O)cc1)NC(=O)[C@H](CO)NC(=O)[C@H](CO)NC(=O)[C@H](CC(N)=O)NC(=O)COCCOCCNC(=O)CN1CCN(CC(=O)O)CCN(CC(=O)O)CCN(CC(=O)O)CC1)C(=O)N[C@@H](CC(C)C)C(N)=O [copper-64 labelled]		dynamic PET	KPC mouse Ptf1a-CreER tdTomato, pancreas	intravenous, 4.6 MBq/mouse, 8.5 min, 84 d after tamoxifen		tissue uptake	12.6 %ID/mL

A few entries again:
SMILES	tested on	test	test system	conditions	scale	measurement	result
C=CC(=O)NC[C@H](NC(=O)[C@H](CC1CCCCC1)NC(=O)[C@H](CCC(N)=O)NC(C)=O)C(=O)N[C@@H](CC(C)C)C(=O)N[C@@H](Cc1ccccc1)C(=O)O	Beta sliding clamp (Escherichia coli, UniProt P0A988)	binding, isothermal titration calorimetry		pH 7.4, 22 °C		ΔH	-11.5 kcal/mol
CON(C(=O)c1cn(C)nc1C(F)F)C(C)Cc1c(Cl)cc(Cl)cc1Cl (stereo not drawn)	SDHD/SDHC/SDHB (Sus scrofa, UniProt A5GZW8+D0VWV4+Q007T0)	enzyme activity, inhibitor, DCIP reduction	pig	0.1 µM, with: DCIP 80 µM		reaction velocity	0.0172 µM/s and 0.0164 µM/s and 0.0162 µM/s
COCC1CCCCN1C(=O)n1cc(C(O)(c2ccccc2)c2ccccc2)nn1 (stereo not drawn)	Dpp7	probe labelling, inhibitor, competitive ABPP-SILAC, item: Dpp7	mouse T cells	concentration not given, 4 h, single peptide	relative to: treated over DMSO cells, lower = stronger inhibition	SILAC activity ratio	1.23 and 1.4 and 1.28 and 1.35
CN1CCCN(C(=O)c2ccc(S(=O)(=O)F)cc2)c2ccccc21	Uncharacterized hydrolase SAUSA300_2518	enzyme activity, inhibitor, fluorogenic substrate		10 µM		remaining activity	103% and 111%
